Measurements pooled from the literature.
Compare with care: the assays were run in different laboratories.
Target: Calcium/calmodulin-dependent protein kinase type 1G (CAMK1G, Homo sapiens, UniProt Q96NX5)

The inhibition of `CN1CCN(Cc2ccc(-c3ccc(CO[C@H]4CCC[C@@H]4NC(=O)c4cc(-c5cnn(C)c5)cnc4N)cc3)cc2)CC1` is reported as 5% (enzyme activity, inhibitor; 0.1 µM).
Under “activity vs control”, `CNC(=O)C[C@H](Cc1ccc(C#N)cc1)NC(=O)c1cc(-c2ccc(CN[C@H](C)c3ccc(C)cc3)o2)ccc1Cl` is recorded as 119% (enzyme activity, inhibitor; 1 µM).
With `COc1cc(Nc2nccc(-c3cnn4nc(OC)ccc34)n2)cc(C(F)(F)F)c1` the remaining binding was 92% (binding, competition with immobilised ligand; 1 µM).
For `COc1c(Cl)cccc1Nc1c(-c2ccncc2C#C[C@@]2(C)CCCN2C(=O)/C=C/CN(C)C)[nH]c2c1C(=O)NCC2`, the remaining binding was 93% (cell-free assay, competition with immobilised ligand; 3 µM).
The remaining binding of `CCN1CCN(Cc2ccc(C(=O)Nc3ccc(C)c(NCc4cnc5[nH]ccc5c4OC)c3)cc2C(F)(F)F)CC1` is reported as 87% (binding, competition with immobilised ligand; 1 µM).
`NC(=O)C[C@H]1CCc2sc3ncnc(O[C@H]4CC[C@H](N5CCOCC5)CC4)c3c21` has an inhibition of 5% (enzyme activity, inhibitor; 10 µM).
`CNC1C[S+]2CC[S+]3CC[S+](C1)[Ru-4]321([N]=C=S)[n]2c3ccc(OC)cc3c3c4c(c5cc(F)c[n+]1c5c32)C(=O)NC4=O` (stereo not drawn) has a remaining binding of 96% (KinomeScan; 0.1 µM; baseline: untreated).
The remaining binding of `C=CC(=O)N1CCCC(n2c(=O)c3ncccc3n(Cc3ccc(Oc4ccccc4)cc3)c2=O)C1` (stereo not drawn) is reported as 100% (cell-free assay, competition with immobilised ligand; 1 µM).
`C=CC(=O)N1CCc2ccc(-n3c(=O)ccc4cnc5ccc(-c6cnn(C)c6)cc5c43)cc21` gave a remaining binding of 92% (KINOMEscan; 1 µM; baseline: DMSO control).
`Nc1ncc(-c2cc(-c3cnn(CC(F)(F)F)c3)ncc2F)nc1C(=O)NC1CNCC(F)C1` (stereo not drawn) gave a remaining activity of 106% (enzyme activity; 1 µM; baseline: DMSO control).
`CNC(=O)C1CCN(c2cc(C)c(F)cc2NC(=O)c2ccc(-c3cc(O)ccc3C)c(C)c2)CC1` has a remaining binding of 90% (binding, competition with immobilised ligand; 1 µM).
`Cc1cnc2nc1Nc1cccc(c1)COC/C=C/COCc1cc(ccc1OCCN1CCOCC1)N2` gave a remaining binding of 100% (binding, competition with immobilised ligand; 0.1 µM).
With `Nc1ncc2c(n1)-c1c([nH]c3ccc(C4=CCOCC4)cc13)CCC2` the remaining binding was 100% (binding, competition with immobilised ligand; 1 µM).
The inhibition of `CCn1cc(C(=O)O)c(=O)c2c(N)c(F)c(NC3CCCCC3)cc21` is reported as 4.1% (kinase activity; 0.1 µM, with: ATP at Km).
`COc1cc(Nc2nc(C)cc(-c3cnn4nc(OC)ccc34)n2)cc(C(F)(F)F)c1` gave a remaining activity of 95% (inhibitor; 1 µM; baseline: control).
With `Cc1ccc(-c2c(/C=C(\C#N)C(=O)NC(C)C)n(CCCO)c3ncnc(N)c23)cc1` the remaining binding was 97% (cell-free assay, competition with immobilised ligand; 1 µM).
`NC(=O)[C@@H](O)C[C@H]1CCc2sc3ncnc(O[C@H]4CC[C@H](N5CCOCC5)CC4)c3c21` gave an inhibition of 5% (enzyme activity, inhibitor; 10 µM).
With `CC(C)=CC1OC(C)(C)C2C=C3C(=O)C(Cl)=CC(O)C3C3C(O)C4OC4C(=O)C132` (stereo not drawn) the remaining binding was 93% (cell-free assay, competition with immobilised ligand; 10 µM).
`C=CC(=O)N1Cc2nc(-c3cc(-c4cc(Cl)cnc4Cl)c(F)cc3F)n(-c3ccncn3)c2C1` gave an inhibition of -2.9% (cell-free assay; 1 µM).
`O=C(Cc1ccc(OCc2ccccc2)cc1)NC1(C(=O)O)CCN(C(=O)c2ccc(-c3cccc(Cl)c3)cc2)CC1`: “activity vs control” 108% (enzyme activity, inhibitor; 10 µM).
The inhibition of `CN1CC[C@@H](COc2cnc(C#N)cc2-c2ccn3nc(NC(=O)C4CC4)cc3c2)C1` is reported as 1% (enzyme activity, inhibitor; 1 µM).
